Published values of several laboratories.
Cell line: A549/ATCC

| SMILES | test | setting | quantity | result |
| --- | --- | --- | --- | --- |
| COc1ccc(-c2ccc(-c3ccc(C(=N)N)nc3)s2)cc1Cl | NCI five-dose screen | – | GI50 | 2.01 µM |
| CSc1nc(-c2ccc(Cl)cc2)c2c(NC(=O)c3ccccc3)nnc-2[nH]1 | NCI60 SRB | 10 µM | growth percent | 104% |
| CCCCc1n(Cc2ccc3ccccc3n2)cc[n+]1Cc1ccc2ccccc2n1 | NCI60 five-dose | – | TGI | 18.5 µM |
| COc1cc(-c2ccc(-c3ccc(C(=N)N)nc3)s2)cc(OC)c1OC | NCI five-dose screen | – | GI50 | 2.06 µM |
| Cc1n(Cc2ccc3ccccc3n2)cc[n+]1Cc1ccc2ccccc2c1 | NCI60 five-dose | – | TGI | 13.1 µM |
| O=C(Nc1nnc2[nH]c(=S)[nH]c(-c3ccc(Cl)cc3)c1-2)c1ccccc1 | NCI60 SRB | 10 µM | growth percent | 96.7% |
| CCCc1n(Cc2ccc3ccccc3n2)cc[n+]1Cc1ccc2ccccc2n1 | NCI60 five-dose | – | TGI | > 100 µM |
| Cc1cc(C)n(C(=S)[S][Au][PH](CCCCCC[PH]([Au][S]C(=S)n2nc(C)cc2C)(c2ccccc2)c2ccccc2)(c2ccccc2)c2ccccc2)n1 | cell growth, NCI-60 screen | non-small cell lung cancer | GI50 | 0.351 µM |
| Cc1cc(C)n(-c2nc(-c3ccc(Cl)cc3)c3c(NC(=O)c4ccccc4)nnc-3[nH]2)n1 | NCI60 SRB | 10 µM | growth percent | 104% |
| COC(=O)/C=C1\C(=O)C=C2C3CC4CC(CCC4(C)N21)C3(C)NC(C)=O (stereo not drawn) | cell growth | NCI screen | IC50 | 33.1 µM |
| Cn1cncc1C1=CN(c2ncnc3[nH]cnc23)CCS1 | – | lung cancer cell line | TGI | > 200 µM |
| S=C([S][Au-][P+](CCCCCC[P+]([Au-][S]C(=S)n1cccn1)(c1ccccc1)c1ccccc1)(c1ccccc1)c1ccccc1)n1cccn1 | cell growth, NCI-60 screen | non-small cell lung cancer | log TGI | > -4 log10 M |

Excerpt of the above:
| SMILES | test | setting | quantity | result |
| --- | --- | --- | --- | --- |
| Cc1cc(C)n(-c2nc(-c3ccc(Cl)cc3)c3c(NC(=O)c4ccccc4)nnc-3[nH]2)n1 | NCI60 SRB | 10 µM | growth percent | 104% |
| COC(=O)/C=C1\C(=O)C=C2C3CC4CC(CCC4(C)N21)C3(C)NC(C)=O (stereo not drawn) | cell growth | NCI screen | IC50 | 33.1 µM |
